Published values pooled from the literature.
Compare with care: the assays were run in different laboratories. ± marks the error that the study gave.

With `CC(=O)c1c(C)c2cnc(Nc3ccc(N4CCNCC4)cn3)nc2n(C2CCCC2)c1=O` the Cmax was 3.28 µg/g (G-Smo mice, medulloblastoma, tumour; intraperitoneal, 25 mg/kg, single dose at P10).
The Cmax of `OCc1ncc2n1-c1ccc(Cl)cc1C(c1ccccc1F)=NC2` is reported as 0.196 ± 0.038 µM (item: 1'-hydroxymidazolam; wild-type mice, plasma; iv, 500 mg/kg, 14 days, with: midazolam 0.3 mg/kg).
`COc1cc(C)[nH]c(=O)c1CNC(=O)c1c(C)n([C@H](C)C2CCN(CC(F)(F)F)CC2)c2ccccc12` gave a Cmax of 50800 ng/mL (female CB17 SCID mice, HT-1376 xenograft, plasma; 75 mg/kg, day 1).
`CCN(CC)CCCC[C@H](NC(=O)[C@H](CC(C)C)NC(=O)[C@H](C)NC(=O)[C@H](Cc1ccccc1)NC(=O)c1ccc(C(C)(C)C)cc1)C(=O)N[C@@H](CO)C(=O)OC` has a Cmax of 580 ng/mL (Swiss albino mice, male, blood; intraperitoneal, 10 mg/kg).
For `CN1CCN(S(=O)(=O)c2cc([N+](=O)[O-])ccc2N(CCOS(C)(=O)=O)CCOS(C)(=O)=O)CC1`, the Cmax was 9.33 µM (naive female NSG mice, plasma; intraperitoneal, 25 mg/kg).
`CNc1nc(N)ncc1-c1cn([C@@H]2O[C@H](CO)[C@@H](O)[C@@]2(C)F)cn1` has a Cmax of 51000 ng/mL (CD-1 mice, both sexes, serum; 100 mg/kg single dose).
`OC(c1ccc(F)cc1)C(F)(F)CCN1CCC(O)(c2ccc(Cl)cc2)CC1` (racemic) gave a Cmax of roughly 0.17 µg/g (female CD-1 mice, brain; intraperitoneal, 10 mg/kg).
For `CC(C)[C@H](O)C(=O)N[C@H]1Cc2ccc3c(c2)[C@]2(C4=C(c5nc(CO)co5)N=C(O4)[C@H](C(C)(C)C)NC1=O)c1cc(F)ccc1N[C@@H]2O3`, the Cmax was 2140 ng/mL (NSG mice, lung; intravenous, 10 mg/kg, single dose at MTD, with: paclitaxel 40 mg/kg).
With `C[C@H]1COCCN1c1nc(NCc2cccnc2C(F)(F)F)c2cccnc2n1` the Cmax was 46600 ng/mL (SCID BALB/c mice; oral, 90 mg/kg).

Some of these lines once more:
For `CN1CCN(S(=O)(=O)c2cc([N+](=O)[O-])ccc2N(CCOS(C)(=O)=O)CCOS(C)(=O)=O)CC1`, the Cmax was 9.33 µM (naive female NSG mice, plasma; intraperitoneal, 25 mg/kg).
